Experimental data of several laboratories.
Numbered parts are unrelated; each lists some results of a single study.
Chain of UniProt Q9H2X6 (whole entry, looked up): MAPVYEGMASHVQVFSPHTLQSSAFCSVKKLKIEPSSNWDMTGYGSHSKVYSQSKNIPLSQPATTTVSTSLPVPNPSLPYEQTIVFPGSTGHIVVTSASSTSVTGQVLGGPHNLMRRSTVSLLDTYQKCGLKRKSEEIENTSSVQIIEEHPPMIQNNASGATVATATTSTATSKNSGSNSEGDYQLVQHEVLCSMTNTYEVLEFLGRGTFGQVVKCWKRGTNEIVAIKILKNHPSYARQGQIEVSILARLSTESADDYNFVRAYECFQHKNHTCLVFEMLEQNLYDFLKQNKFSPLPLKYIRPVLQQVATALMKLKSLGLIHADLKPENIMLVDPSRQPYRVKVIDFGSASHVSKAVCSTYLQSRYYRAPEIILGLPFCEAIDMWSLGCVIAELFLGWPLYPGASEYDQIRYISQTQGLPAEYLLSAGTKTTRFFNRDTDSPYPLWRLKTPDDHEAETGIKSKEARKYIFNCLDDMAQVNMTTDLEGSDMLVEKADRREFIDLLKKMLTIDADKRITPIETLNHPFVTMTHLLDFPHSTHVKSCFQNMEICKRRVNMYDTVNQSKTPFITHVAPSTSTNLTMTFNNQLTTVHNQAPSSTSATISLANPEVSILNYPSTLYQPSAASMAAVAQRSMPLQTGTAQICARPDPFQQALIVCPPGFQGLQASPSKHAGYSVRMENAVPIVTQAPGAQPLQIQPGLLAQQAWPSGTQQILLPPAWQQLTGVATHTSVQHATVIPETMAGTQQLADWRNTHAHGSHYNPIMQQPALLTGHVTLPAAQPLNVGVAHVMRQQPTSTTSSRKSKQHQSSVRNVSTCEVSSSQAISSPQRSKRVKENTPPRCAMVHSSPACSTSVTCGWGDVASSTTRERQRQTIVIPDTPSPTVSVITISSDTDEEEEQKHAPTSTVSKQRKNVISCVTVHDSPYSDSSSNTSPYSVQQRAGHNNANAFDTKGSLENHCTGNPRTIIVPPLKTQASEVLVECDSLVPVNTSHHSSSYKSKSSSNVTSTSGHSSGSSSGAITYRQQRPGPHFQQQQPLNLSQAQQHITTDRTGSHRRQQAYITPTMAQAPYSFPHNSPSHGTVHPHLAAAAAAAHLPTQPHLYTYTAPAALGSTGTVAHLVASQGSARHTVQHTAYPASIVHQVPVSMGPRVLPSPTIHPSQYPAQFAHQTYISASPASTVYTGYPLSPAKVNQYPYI
Chain of UniProt O00141 (whole entry, looked up): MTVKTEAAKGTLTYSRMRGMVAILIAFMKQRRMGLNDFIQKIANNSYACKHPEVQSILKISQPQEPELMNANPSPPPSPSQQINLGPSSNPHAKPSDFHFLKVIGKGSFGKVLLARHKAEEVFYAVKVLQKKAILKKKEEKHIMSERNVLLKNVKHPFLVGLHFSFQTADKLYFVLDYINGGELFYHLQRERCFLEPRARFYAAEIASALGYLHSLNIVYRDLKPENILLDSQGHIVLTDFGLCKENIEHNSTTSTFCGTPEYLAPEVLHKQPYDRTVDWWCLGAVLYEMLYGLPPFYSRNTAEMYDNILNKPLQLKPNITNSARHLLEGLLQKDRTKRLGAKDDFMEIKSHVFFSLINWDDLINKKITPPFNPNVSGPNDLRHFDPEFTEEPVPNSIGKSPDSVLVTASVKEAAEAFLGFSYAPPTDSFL
Chain of UniProt P53778 (whole entry, looked up): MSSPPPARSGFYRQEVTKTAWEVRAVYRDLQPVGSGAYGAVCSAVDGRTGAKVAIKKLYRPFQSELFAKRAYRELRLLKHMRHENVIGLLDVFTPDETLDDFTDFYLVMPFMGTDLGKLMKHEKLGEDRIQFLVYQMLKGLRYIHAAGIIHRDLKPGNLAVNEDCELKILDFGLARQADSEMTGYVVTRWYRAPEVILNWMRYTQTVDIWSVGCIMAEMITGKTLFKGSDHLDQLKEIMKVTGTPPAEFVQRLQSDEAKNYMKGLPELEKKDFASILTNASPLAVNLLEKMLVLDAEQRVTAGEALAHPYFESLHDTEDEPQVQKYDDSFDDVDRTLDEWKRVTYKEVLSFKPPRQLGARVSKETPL
Chain of UniProt P42680 (whole entry, looked up): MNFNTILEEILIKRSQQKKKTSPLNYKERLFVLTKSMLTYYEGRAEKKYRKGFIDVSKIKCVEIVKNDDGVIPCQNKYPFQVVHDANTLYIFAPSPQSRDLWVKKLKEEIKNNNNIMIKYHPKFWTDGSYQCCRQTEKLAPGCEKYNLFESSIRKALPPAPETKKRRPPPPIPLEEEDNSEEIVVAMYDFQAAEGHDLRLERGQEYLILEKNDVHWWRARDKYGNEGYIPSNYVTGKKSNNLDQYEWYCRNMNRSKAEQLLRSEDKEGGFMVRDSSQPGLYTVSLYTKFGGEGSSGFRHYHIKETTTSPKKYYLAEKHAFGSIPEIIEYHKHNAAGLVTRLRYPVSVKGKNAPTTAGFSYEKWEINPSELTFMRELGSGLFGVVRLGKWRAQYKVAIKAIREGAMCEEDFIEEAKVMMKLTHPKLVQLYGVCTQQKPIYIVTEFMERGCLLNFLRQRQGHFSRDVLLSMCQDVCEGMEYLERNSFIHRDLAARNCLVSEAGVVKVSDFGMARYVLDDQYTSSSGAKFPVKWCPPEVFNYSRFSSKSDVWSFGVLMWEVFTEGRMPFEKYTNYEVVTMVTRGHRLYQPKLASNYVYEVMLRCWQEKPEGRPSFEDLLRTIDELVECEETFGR
Chain of UniProt O60331 (whole entry, looked up): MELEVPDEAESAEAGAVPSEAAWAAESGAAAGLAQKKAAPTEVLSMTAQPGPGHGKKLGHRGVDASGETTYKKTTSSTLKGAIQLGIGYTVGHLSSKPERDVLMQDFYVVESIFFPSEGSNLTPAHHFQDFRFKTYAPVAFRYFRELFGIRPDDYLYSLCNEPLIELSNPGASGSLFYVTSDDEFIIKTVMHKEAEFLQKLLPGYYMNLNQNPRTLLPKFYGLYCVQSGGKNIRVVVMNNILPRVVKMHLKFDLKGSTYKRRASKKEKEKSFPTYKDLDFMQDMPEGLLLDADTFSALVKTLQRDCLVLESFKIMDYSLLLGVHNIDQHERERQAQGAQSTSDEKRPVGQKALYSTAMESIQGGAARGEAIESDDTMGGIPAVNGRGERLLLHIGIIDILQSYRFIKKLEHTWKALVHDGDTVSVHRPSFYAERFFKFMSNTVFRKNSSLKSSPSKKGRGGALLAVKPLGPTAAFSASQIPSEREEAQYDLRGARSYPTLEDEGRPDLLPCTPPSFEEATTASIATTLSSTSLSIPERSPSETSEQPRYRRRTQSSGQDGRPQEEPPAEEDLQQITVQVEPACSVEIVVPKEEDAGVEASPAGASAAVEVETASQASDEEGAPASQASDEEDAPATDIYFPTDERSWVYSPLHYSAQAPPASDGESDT
Chain of UniProt P51956 (whole entry, looked up): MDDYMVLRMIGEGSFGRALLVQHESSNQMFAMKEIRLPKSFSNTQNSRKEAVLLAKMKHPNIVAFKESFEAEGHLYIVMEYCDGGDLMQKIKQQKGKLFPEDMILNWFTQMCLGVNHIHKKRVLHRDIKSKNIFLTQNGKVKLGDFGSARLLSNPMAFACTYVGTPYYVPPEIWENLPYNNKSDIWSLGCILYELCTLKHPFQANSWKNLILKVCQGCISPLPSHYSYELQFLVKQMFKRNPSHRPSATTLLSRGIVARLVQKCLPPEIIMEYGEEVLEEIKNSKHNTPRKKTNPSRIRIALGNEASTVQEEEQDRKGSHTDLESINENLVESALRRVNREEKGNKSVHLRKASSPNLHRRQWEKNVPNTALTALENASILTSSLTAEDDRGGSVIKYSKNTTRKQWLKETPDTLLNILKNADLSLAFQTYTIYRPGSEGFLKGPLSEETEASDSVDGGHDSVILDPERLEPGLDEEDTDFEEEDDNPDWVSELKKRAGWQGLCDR
Chain of UniProt P00519 (whole entry, looked up): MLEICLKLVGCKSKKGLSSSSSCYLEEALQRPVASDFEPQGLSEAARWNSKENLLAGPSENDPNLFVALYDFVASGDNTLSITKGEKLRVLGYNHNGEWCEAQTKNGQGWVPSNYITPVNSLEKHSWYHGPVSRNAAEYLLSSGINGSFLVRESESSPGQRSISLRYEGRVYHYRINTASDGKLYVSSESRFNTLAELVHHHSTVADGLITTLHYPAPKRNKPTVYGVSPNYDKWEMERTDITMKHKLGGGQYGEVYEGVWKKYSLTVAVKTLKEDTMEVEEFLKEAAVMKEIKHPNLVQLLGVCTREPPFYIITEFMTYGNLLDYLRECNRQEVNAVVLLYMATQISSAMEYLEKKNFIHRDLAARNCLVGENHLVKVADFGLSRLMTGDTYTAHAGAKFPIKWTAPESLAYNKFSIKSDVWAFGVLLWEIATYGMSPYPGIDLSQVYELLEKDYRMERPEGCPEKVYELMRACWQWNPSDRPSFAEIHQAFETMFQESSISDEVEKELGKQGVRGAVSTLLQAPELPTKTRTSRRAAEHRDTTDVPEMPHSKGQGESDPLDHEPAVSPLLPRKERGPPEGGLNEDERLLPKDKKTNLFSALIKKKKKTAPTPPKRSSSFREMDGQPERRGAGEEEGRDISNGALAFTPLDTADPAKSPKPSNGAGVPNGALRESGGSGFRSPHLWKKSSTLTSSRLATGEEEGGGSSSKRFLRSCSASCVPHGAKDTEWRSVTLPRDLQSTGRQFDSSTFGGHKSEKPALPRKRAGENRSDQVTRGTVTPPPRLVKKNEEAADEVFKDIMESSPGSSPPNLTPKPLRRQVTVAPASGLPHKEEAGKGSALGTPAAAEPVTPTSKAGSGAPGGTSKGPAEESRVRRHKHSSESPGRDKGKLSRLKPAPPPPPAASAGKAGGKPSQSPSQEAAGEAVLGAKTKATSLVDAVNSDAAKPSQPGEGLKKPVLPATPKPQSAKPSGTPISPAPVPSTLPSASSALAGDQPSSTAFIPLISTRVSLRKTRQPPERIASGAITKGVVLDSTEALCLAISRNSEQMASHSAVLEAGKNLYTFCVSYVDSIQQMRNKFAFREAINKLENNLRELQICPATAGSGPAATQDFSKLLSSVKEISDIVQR

Series 1
Cell line: HaCaT
Tested at: 100 µM
Time: 36 h
SMILES | viability [%]
COc1cc2ccc(=O)oc2c(O)c1O | 115
COC(=O)CCc1ccc(OCC(O)CNC(C)C)cc1 (centres unmarked) | 86.4
C[N+]1(C)[C@@H]2C[C@@H](OC(=O)C(O)(c3cccs3)c3cccs3)C[C@H]1[C@@H]1O[C@@H]12 | 117
NC(=O)N1c2ccccc2CC(=O)c2ccccc21 | 69.7
CC(=O)[C@H]1CC[C@H]2[C@@H]3C[C@H](C)C4=CC(=O)CC[C@]4(C)[C@H]3[C@@H](O)C[C@]12C | 53.1
CC(C)C[C@H](NC(=O)[C@H](CCc1ccccc1)NC(=O)CN1CCOCC1)C(=O)N[C@@H](Cc1ccccc1)C(=O)N[C@@H](CC(C)C)C(=O)[C@@]1(C)CO1 | 9.71
CC1(C)CCC(CN2CCN(c3ccc(C(=O)NS(=O)(=O)c4ccc(NCC5CCOCC5)c([N+](=O)[O-])c4)c(Oc4cnc5[nH]ccc5c4)c3)CC2)=C(c2ccc(Cl)cc2)C1 | 10.5
O=c1ccc2ccccc2o1 | 90.3
CC(C)NCC(O)COc1ccc(CCOCC2CC2)cc1 (centres unmarked) | 72.7

Series 2
SMILES: COc1ccc(-c2c(Nc3ccccn3)[nH]c3c(C4=CCCCC4)c(-c4ccccc4)nn3c2=O)cc1
Host: cancer patients
Sample: plasma
Route: oral
Time: cycle 0 day -3
Setting: single dose
setting | terminal half-life, median
200 mg | 2300 min
50 mg | 1070 min
150 mg | 1960 min
100 mg | 1750 min
400 mg | 972 min

Series 3
Sample: 1,9-decadiene/PBS
pH: 7.4
Structure (SMILES) | logD
CC(C)C[C@@H]1NC(=O)[C@H](Cc2cscn2)NC(=O)[C@H](C)NC(=O)[C@H](CCC(=O)N2CCCC2)NC(=O)[C@@H](CCC(=O)N2CCCC2)NC(=O)[C@H](CC(C)C)NC(=O)[C@@H](CC(C)C)NC1=O | -3.24
CC(C)C[C@@H]1NC(=O)[C@H](CC(C)C)NC(=O)[C@@H](CC(C)C)NC(=O)[C@@H](C)NC(=O)[C@H](C(C)C)NC(=O)[C@H](C)NC(=O)[C@H](C)NC1=O | -2.37
CC(C)C[C@@H]1NC(=O)[C@H](C)NC(=O)[C@H](CC(C)C)NC(=O)[C@@H](CC(C)C)NC(=O)[C@H](CC(C)C)NC(=O)[C@H](C)NC(=O)[C@H](CCC(=O)N2CCCC2)NC1=O | -2.31
CC(C)C[C@@H]1NC(=O)[C@H](C(C)C)NC(=O)[C@H](CC(C)C)NC(=O)[C@@H](CC(C)C)NC(=O)[C@H](CC(C)C)NC(=O)[C@H](C(C)C)NC(=O)[C@H](Cc2cscn2)NC1=O | 0.78
CC(C)C[C@@H]1NC(=O)[C@@H](C)NC(=O)[C@@H](CC(C)C)NC(=O)[C@@H](C(C)C)NC(=O)[C@H](C(C)C)NC(=O)[C@H](CC(C)C)NC(=O)[C@@H](CC(C)C)NC1=O | 0.752
CC(C)C[C@@H]1NC(=O)[C@H](CCC(=O)N2CCCC2)NC(=O)[C@H](CC(C)C)NC(=O)[C@@H](CCC(=O)N2CCCC2)NC(=O)[C@H](CC(C)C)NC(=O)[C@@H](CC(C)C)NC(=O)[C@H](CC(C)C)NC1=O | -0.312
CC(C)C[C@@H]1NC(=O)[C@H](C)NC(=O)[C@H](Cc2cscn2)NC(=O)[C@H](CCC(=O)N2CCCC2)NC(=O)[C@H](CC(C)C)NC(=O)[C@H](CC(C)C)NC(=O)[C@@H](CC(C)C)NC1=O | -1.72
CC(C)C[C@@H]1NC(=O)[C@H](C)NC(=O)[C@@H](CC(C)C)NC(=O)[C@@H](CC(C)C)NC(=O)[C@@H](Cc2cscn2)NC(=O)[C@H](CC(C)C)NC(=O)[C@@H](CC(C)C)NC1=O | 0.106
CC(C)C[C@@H]1NC(=O)[C@H](C)NC(=O)[C@H](CC(C)C)NC(=O)[C@@H](CC(C)C)NC(=O)[C@H](CC(C)C)NC(=O)[C@H](C(C)C)NC(=O)[C@H](CCC(=O)N2CCCC2)NC1=O | -0.955
CC(C)C[C@@H]1NC(=O)[C@H](Cc2cscn2)NC(=O)[C@@H](CC(C)C)NC(=O)[C@H](CC(C)C)NC(=O)[C@@H](Cc2cscn2)NC(=O)[C@H](CC(C)C)NC(=O)[C@@H](CC(C)C)NC1=O | -0.31
CC(C)C[C@@H]1NC(=O)[C@H](C(C)C)NC(=O)[C@@H](CC(C)C)NC(=O)[C@@H](CC(C)C)NC(=O)[C@H](C)NC(=O)[C@H](CC(C)C)NC(=O)[C@@H](CC(C)C)NC1=O | 1.5

Series 4
Compound: CCCOc1ccc([C@H]2[C@H](C(=O)O)[C@@H](c3ccc4c(c3)OCO4)CN2CC(=O)Nc2c(CC)cccc2CC)cc1
Method: competition with immobilised ligand
Tested at: 1 µM
target | test | remaining binding
Phosphatidylinositol 4-phosphate 5-kinase type-1 gamma (PIP5K1C, Homo sapiens, UniProt O60331) | cell-free assay | 100%
Phosphatidylinositol 4-phosphate 5-kinase type-1 alpha (PIP5K1A, Homo sapiens, UniProt Q99755) | cell-free assay | 82%
Mitogen-activated protein kinase 12 (MAPK12, Homo sapiens, UniProt P53778) | cell-free assay | 73%
Homeodomain-interacting protein kinase 2 (HIPK2, Homo sapiens, UniProt Q9H2X6) | cell-free assay | 66%
Serine/threonine-protein kinase Nek2 (NEK2, Homo sapiens, UniProt P51955) | cell-free assay | 90%
Serine/threonine-protein kinase Sgk1 (SGK1, Homo sapiens, UniProt O00141) | cell-free assay | 63%
Tyrosine-protein kinase ABL1, non-phosphorylated (ABL1, Homo sapiens, UniProt P00519) | cell-free assay | 70%
Tyrosine-protein kinase Tec (TEC, Homo sapiens, UniProt P42680) | binding | 100%
Interleukin-1 receptor-associated kinase 3 (IRAK3, Homo sapiens, UniProt Q9Y616) | cell-free assay | 100%
Aurora kinase B (AURKB, Homo sapiens, UniProt Q96GD4) | cell-free assay | 72%
Cyclin-dependent kinase 5 (CDK5, Homo sapiens, UniProt Q00535) | cell-free assay | 100%
Serine/threonine-protein kinase Nek3 (NEK3, Homo sapiens, UniProt P51956) | cell-free assay | 69%
Serine/threonine-protein kinase MAK (MAK, Homo sapiens, UniProt P20794) | cell-free assay | 97%

A few entries again (series 1):
SMILES | viability [%]
C[N+]1(C)[C@@H]2C[C@@H](OC(=O)C(O)(c3cccs3)c3cccs3)C[C@H]1[C@@H]1O[C@@H]12 | 117
NC(=O)N1c2ccccc2CC(=O)c2ccccc21 | 69.7
CC(=O)[C@H]1CC[C@H]2[C@@H]3C[C@H](C)C4=CC(=O)CC[C@]4(C)[C@H]3[C@@H](O)C[C@]12C | 53.1
CC(C)C[C@H](NC(=O)[C@H](CCc1ccccc1)NC(=O)CN1CCOCC1)C(=O)N[C@@H](Cc1ccccc1)C(=O)N[C@@H](CC(C)C)C(=O)[C@@]1(C)CO1 | 9.71
CC1(C)CCC(CN2CCN(c3ccc(C(=O)NS(=O)(=O)c4ccc(NCC5CCOCC5)c([N+](=O)[O-])c4)c(Oc4cnc5[nH]ccc5c4)c3)CC2)=C(c2ccc(Cl)cc2)C1 | 10.5
